Assay results pooled from the literature.
≈ marks a conversion by molar mass, not a printed value.
EIF2AK1: Eukaryotic translation initiation factor 2-alpha kinase 1 (EIF2AK1, Homo sapiens, UniProt Q9BQI3)
Sequence of UniProt Q9BQI3 (whole entry, looked up): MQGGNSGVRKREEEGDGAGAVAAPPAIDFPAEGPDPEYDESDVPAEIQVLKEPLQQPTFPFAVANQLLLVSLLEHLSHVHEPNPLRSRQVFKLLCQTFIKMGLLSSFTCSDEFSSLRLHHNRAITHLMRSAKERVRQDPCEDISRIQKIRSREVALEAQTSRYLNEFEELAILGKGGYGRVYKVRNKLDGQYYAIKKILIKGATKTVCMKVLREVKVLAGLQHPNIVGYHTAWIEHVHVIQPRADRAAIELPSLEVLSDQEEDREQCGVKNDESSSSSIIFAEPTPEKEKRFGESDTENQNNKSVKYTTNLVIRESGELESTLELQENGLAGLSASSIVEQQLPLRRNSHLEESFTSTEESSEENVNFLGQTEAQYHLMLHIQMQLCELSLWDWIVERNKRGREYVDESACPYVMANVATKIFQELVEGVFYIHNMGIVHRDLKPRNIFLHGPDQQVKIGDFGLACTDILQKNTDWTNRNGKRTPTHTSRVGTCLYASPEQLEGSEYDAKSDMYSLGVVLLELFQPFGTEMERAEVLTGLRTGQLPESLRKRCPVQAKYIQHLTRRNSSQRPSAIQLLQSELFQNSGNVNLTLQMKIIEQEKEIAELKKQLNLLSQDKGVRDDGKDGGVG
Sequence of UniProt O60741 (whole entry, looked up): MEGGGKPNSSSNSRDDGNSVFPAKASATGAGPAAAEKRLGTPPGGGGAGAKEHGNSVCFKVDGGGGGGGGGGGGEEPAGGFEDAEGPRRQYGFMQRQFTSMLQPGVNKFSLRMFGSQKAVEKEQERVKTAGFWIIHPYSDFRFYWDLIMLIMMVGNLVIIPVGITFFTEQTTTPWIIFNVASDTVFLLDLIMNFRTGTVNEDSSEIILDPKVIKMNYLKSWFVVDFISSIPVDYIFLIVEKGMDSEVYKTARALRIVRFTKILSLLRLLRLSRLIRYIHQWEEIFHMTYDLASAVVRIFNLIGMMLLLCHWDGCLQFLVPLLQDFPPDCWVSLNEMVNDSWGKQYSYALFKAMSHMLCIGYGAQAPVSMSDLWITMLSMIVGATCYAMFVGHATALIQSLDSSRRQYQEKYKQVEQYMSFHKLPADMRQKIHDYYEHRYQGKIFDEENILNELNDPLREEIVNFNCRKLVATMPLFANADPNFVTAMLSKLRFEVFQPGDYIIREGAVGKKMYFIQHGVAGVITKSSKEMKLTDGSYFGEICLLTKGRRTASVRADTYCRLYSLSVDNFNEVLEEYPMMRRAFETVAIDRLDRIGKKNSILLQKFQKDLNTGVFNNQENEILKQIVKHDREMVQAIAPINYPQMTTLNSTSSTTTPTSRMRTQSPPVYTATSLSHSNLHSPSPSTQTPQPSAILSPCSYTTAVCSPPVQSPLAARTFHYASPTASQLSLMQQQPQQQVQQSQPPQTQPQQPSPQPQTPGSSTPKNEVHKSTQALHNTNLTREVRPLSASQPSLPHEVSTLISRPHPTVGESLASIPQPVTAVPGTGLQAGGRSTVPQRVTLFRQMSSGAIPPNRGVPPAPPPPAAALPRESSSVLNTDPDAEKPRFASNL
Sequence of UniProt P14616 (whole entry, looked up): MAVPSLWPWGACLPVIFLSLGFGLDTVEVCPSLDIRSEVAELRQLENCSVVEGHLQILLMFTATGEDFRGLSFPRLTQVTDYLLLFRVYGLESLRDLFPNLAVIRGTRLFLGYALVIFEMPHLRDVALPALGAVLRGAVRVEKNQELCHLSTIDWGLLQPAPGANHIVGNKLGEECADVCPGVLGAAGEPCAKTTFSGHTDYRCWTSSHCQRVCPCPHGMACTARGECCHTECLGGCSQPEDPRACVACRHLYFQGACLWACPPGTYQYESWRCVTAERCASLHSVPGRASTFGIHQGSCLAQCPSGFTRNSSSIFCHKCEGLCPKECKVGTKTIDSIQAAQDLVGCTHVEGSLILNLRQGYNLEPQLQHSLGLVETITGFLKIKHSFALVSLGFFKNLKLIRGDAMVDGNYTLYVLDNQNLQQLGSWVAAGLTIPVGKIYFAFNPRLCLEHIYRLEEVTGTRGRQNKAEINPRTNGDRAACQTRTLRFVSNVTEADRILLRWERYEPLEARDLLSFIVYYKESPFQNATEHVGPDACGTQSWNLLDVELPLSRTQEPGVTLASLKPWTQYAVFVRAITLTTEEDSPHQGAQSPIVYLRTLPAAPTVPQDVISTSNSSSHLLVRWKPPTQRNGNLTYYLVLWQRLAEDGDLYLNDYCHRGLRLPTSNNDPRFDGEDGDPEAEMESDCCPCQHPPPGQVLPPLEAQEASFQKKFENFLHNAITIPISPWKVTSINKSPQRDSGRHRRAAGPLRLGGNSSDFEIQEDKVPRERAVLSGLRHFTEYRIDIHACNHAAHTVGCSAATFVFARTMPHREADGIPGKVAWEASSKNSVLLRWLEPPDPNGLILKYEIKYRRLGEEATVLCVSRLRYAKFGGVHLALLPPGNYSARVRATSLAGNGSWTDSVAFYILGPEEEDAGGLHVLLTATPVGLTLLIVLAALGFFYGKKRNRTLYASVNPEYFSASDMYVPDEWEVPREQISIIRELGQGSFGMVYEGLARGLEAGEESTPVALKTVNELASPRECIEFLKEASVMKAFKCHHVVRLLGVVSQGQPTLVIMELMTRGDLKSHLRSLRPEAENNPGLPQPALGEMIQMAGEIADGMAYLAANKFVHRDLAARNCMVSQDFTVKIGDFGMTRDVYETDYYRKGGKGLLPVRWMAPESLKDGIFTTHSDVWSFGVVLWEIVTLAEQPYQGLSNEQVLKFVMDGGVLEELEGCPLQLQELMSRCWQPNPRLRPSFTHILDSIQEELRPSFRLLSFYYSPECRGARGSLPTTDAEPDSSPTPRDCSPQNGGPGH
Sequence of UniProt Q13188 (whole entry, looked up): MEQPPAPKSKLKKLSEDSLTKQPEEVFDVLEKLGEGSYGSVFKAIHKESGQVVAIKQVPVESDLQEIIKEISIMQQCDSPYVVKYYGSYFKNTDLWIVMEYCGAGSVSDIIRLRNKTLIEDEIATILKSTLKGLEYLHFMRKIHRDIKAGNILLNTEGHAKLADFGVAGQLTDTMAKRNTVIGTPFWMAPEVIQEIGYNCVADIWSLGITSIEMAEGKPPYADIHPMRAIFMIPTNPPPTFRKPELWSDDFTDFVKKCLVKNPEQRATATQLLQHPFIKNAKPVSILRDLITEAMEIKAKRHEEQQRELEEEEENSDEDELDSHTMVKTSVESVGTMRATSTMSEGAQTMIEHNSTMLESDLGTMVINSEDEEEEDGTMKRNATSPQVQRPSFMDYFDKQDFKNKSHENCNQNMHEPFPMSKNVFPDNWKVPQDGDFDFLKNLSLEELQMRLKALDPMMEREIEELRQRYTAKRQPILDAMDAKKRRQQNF
Sequence of UniProt P12390 (whole entry, looked up): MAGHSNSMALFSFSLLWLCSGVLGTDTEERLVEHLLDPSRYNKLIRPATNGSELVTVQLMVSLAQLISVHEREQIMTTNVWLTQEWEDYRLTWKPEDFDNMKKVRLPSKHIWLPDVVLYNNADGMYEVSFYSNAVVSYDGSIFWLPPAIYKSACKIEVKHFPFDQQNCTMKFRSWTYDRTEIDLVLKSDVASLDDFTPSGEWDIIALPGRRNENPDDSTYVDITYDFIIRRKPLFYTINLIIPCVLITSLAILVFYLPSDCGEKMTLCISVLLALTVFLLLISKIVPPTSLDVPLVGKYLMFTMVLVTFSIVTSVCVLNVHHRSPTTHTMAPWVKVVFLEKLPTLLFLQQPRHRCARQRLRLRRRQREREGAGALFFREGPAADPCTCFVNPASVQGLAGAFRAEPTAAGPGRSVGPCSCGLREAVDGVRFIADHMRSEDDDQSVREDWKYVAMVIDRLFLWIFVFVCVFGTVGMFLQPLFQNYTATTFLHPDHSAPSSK
Sequence of UniProt P40763 (whole entry, looked up): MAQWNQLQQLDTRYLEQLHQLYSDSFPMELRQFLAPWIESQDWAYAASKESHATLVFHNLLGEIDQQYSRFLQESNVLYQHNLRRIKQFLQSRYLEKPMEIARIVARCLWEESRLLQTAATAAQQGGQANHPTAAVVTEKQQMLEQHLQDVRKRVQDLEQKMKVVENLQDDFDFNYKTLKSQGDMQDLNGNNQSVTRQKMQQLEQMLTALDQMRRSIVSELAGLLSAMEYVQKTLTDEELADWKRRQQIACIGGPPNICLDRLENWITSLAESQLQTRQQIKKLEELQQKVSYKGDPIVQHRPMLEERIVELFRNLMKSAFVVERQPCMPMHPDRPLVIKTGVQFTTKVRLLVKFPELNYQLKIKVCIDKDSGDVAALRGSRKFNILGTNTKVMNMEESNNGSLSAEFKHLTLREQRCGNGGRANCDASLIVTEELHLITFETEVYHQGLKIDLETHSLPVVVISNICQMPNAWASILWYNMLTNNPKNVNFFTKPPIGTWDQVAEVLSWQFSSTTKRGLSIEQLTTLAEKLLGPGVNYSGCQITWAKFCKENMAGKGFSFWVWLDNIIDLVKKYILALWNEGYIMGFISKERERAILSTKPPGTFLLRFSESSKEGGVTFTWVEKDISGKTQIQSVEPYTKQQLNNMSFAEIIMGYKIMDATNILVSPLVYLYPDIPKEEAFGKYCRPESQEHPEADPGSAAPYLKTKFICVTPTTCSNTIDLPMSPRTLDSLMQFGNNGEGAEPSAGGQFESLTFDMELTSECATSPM
Sequence of UniProt Q01726 (whole entry, looked up): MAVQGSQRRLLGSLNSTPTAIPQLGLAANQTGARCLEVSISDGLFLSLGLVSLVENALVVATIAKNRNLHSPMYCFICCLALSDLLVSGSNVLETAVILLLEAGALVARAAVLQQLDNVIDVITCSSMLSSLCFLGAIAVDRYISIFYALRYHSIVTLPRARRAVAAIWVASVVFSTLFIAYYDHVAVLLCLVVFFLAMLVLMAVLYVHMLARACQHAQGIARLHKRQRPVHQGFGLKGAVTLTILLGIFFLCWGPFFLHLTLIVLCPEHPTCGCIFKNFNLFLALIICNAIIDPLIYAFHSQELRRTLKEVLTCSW

| Compound | tested on | assay | test system | setting | endpoint | value |
| --- | --- | --- | --- | --- | --- | --- |
| Oc1cccc(N2[C@@H]3CC[C@H]2CN(CCCc2ccccc2)C3)c1 | Kappa-type opioid receptor (OPRK1, Homo sapiens, UniProt P41145) | cAMP, agonist |  |  | Emax | 0% |
| [2H]c1c([2H])c([C@]2([2H])CCCN2C(=O)C(C)(C)Oc2ccc3cn[nH]c3c2)c([2H])c([2H])c1C([2H])([2H])[2H] | Macrophage colony-stimulating factor 1 receptor, autoinhibited (CSF1R, Homo sapiens, UniProt P07333) | binding, competition with immobilised ligand |  | 1 µM | remaining binding | 98% |
| CN1CCC[C@H]1c1cccnc1 | Neuronal acetylcholine receptor; alpha2/beta2 (Rattus norvegicus, UniProt P12389+P12390) | ligand displacement, radioligand |  | 50 µM | inhibition | 96.3% |
| N.N.[Cl][Pt][Cl] | KARPAS-422 | cell growth or viability, ATP luminescence |  | 10 µM, 72 h | inhibition | 100% |
| O=C1NC(=O)C(c2ccccc2)(c2ccccc2)N1 | Potassium/sodium hyperpolarization-activated cyclic nucleotide-gated channel 1 (Homo sapiens, UniProt O60741) | ion current, inhibitor |  | 3 µM | inhibition | -1.57% |
| CC(C)C[C@H](NC(=O)[C@H](Cc1ccccc1)NC(=O)[C@H](Cc1ccccc1)NC(=O)Cc1ccc(-c2ccccc2)cc1)C(=O)N[C@@H](CCCCN)C(=O)N[C@@H](CCCNC(=N)N)C(=O)N[C@H](C(=O)N[C@@H](Cc1c[nH]c2ccccc12)C(=O)N[C@@H](CCCCN)C(=O)N[C@@H](CCCNC(=N)N)C(=O)O)C(C)C |  | metabolic stability | rat, liver microsomes | 1 h | compound remaining | 12.6% |
| Nc1ncc(-c2nc(N3CCOCC3)nc(N3CCOCC3)n2)c(C(F)F)n1 | EIF2AK1 | binding, competition with immobilised ligand |  | 10 µM | remaining binding | 85% |
| NC(=O)CC[C@H](NC(=O)[C@@H]1CC[C@@H]2CCN(C(=O)CCCCCC#Cc3cccc4c3CN(C3CCC(=O)NC3=O)C4=O)C[C@H](NC(=O)c3cc4cc(C(=O)P(=O)(O)O)ccc4[nH]3)C(=O)N21)C(=O)NC(c1ccccc1)c1ccccc1 (stereo partly drawn) | Signal transducer and activator of transcription 3 (STAT3, Homo sapiens, UniProt P40763) | protein level, degrader, luciferase | HeLa |  | Dmax | 86 to 88% |
| CC(C)C[C@@H]1NC(=O)CNC(=O)[C@H]2CCCN2C(=O)[C@@H](CC(C)C)NC(=O)CNC(=O)[C@H](Cc2ccc(O)cc2)NC(=O)[C@@H](Cc2ccc(O)cc2)NC(=O)[C@@H](CCCCN)NC(=O)[C@H]([C@@H](C)O)NC(=O)[C@@H]2CCCN2C(=O)[C@H](CC(C)C)NC1=O |  |  | aqueous buffer | 18 h, pH 7.4 | thermodynamic solubility | 626 µM (≈ 753 µg/mL) |
| CC(C)CC(=O)OC[C@H]1O[C@@](C#N)(c2ccc3c(N)ncnn23)[C@H](O)[C@@H]1O | Melanocyte-stimulating hormone receptor (MC1R, Homo sapiens, UniProt Q01726) | cell-free assay |  | 20 µM | inhibition | 3% |
| N=c1c2c(-c3ccccc3)c(-c3ccccc3)n(Cc3ccccc3)c2ncn1[C@H]1CC[C@H](O)CC1 |  |  | male Sprague-Dawley rat, plasma | intravenous, 2 mg/kg, single dose | Vd | 9.8 L/kg |
| Cc1nn(C)cc1-c1nc2c(N3CCN(Cc4ccc(Cl)cc4)CC3)c(Cl)cnc2[nH]1 | EIF2AK1 | binding, competition with immobilised ligand |  | 1 µM | remaining binding | 100% |
| COc1ncccc1-c1cnn2ccc(N3CCN(C(=O)OC(C)C)CC3)nc12 | Serine/threonine-protein kinase 3 (STK3, Homo sapiens, UniProt Q13188) | binding, competition with immobilised ligand |  | 1 µM | remaining binding | 62% |
| C#Cc1ccc2c(c1)C(c1ccccn1)=NCc1c(-c3cnco3)ncn1-2.Cl |  |  | water | 80 min, 37 °C | kinetic solubility | 4480 µg/mL |
| C#Cc1n[nH]c2c(-c3cn([C@@H](C)c4ccccn4)c(=O)[nH]c3=O)cc(F)cc12 | Insulin receptor-related protein (INSRR, Homo sapiens, UniProt P14616) | enzyme activity, inhibitor |  | 0.1 µM | inhibition | 7.1% |

Some of these lines once more:
| Compound | tested on | assay | test system | setting | endpoint | value |
| --- | --- | --- | --- | --- | --- | --- |
| C#Cc1ccc2c(c1)C(c1ccccn1)=NCc1c(-c3cnco3)ncn1-2.Cl |  |  | water | 80 min, 37 °C | kinetic solubility | 4480 µg/mL |
